Measurements from different studies.
A part holds a random share of what one study measured.
Sequence of UniProt P10721 (whole entry, unmodified, looked up): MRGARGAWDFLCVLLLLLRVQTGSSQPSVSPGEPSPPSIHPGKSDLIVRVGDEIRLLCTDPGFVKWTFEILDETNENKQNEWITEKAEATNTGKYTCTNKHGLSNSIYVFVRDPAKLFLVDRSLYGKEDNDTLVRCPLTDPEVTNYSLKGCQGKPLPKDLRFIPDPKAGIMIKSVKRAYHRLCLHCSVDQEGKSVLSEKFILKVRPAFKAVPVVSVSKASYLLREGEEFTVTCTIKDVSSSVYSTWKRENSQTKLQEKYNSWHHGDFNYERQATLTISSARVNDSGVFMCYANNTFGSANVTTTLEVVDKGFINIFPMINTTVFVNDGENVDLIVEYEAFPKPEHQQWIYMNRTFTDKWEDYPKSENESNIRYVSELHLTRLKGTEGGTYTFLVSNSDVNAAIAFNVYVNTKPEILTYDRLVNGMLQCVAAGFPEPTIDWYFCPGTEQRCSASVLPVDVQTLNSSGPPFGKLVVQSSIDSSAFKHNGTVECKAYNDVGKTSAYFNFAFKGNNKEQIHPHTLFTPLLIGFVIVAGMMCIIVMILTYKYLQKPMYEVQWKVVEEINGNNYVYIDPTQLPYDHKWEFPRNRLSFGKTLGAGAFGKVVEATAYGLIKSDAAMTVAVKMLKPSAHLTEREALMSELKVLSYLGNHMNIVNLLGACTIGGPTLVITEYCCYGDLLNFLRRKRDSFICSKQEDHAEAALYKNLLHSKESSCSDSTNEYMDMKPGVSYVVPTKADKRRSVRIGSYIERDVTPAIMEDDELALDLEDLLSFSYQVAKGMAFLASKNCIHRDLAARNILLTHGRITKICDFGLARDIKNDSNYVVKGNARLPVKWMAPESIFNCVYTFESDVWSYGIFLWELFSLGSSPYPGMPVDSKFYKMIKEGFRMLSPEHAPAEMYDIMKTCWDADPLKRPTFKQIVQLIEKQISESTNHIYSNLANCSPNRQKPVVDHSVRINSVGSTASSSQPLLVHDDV
Sequence of UniProt Q96PF2 (whole entry, looked up): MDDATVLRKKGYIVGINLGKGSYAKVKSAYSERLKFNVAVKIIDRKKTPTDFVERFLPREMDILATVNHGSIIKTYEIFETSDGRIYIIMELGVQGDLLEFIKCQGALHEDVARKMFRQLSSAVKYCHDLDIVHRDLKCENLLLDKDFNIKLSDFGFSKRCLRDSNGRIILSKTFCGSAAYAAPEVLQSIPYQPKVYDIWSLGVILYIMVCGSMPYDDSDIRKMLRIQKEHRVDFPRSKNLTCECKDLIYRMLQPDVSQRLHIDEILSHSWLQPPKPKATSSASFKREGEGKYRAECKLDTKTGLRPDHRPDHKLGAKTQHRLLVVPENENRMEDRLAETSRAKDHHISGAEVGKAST
Sequence of UniProt P06213 (whole entry, looked up): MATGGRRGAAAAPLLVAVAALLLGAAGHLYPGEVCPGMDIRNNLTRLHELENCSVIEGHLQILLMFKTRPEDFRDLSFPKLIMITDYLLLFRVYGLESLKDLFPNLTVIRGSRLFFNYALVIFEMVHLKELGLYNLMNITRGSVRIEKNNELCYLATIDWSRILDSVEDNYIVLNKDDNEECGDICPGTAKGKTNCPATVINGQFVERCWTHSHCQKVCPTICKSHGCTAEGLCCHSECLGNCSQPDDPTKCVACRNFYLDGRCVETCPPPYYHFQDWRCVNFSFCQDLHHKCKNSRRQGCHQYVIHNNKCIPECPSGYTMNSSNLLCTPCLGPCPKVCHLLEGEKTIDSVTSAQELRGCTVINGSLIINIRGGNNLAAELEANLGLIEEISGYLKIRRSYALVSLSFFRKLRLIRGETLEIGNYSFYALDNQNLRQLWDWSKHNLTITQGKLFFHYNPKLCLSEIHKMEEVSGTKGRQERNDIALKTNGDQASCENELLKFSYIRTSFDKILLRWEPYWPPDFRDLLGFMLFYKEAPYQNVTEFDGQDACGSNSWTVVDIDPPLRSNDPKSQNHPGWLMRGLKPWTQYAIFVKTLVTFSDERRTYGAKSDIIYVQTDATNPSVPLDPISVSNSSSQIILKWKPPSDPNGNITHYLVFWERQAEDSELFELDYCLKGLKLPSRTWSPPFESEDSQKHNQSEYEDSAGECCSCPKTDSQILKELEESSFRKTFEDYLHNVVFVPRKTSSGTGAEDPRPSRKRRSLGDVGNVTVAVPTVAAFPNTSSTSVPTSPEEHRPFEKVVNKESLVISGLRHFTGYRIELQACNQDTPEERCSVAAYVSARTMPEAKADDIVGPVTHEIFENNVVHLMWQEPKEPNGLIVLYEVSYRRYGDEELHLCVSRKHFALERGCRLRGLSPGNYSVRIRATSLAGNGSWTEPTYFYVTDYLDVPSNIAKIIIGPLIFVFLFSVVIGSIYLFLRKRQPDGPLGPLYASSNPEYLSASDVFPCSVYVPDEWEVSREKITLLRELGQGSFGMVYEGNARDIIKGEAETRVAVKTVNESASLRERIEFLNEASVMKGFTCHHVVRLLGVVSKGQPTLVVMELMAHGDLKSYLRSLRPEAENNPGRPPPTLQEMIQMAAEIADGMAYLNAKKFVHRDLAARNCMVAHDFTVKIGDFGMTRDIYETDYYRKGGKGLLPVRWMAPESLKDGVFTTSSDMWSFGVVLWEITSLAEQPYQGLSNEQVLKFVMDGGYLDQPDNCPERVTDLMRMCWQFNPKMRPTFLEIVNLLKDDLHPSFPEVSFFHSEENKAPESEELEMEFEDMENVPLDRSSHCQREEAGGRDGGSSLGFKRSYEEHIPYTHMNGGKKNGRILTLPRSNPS
Sequence of UniProt O75716 (whole entry, looked up): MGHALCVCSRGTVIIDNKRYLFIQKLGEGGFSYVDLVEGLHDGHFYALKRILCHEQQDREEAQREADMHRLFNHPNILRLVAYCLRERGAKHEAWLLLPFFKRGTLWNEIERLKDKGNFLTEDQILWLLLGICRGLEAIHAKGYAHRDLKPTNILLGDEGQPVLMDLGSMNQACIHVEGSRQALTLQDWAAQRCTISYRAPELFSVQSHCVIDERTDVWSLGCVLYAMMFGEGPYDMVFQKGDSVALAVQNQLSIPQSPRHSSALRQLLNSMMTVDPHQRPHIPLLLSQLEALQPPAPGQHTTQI
Sequence of UniProt P30291 (whole entry, looked up): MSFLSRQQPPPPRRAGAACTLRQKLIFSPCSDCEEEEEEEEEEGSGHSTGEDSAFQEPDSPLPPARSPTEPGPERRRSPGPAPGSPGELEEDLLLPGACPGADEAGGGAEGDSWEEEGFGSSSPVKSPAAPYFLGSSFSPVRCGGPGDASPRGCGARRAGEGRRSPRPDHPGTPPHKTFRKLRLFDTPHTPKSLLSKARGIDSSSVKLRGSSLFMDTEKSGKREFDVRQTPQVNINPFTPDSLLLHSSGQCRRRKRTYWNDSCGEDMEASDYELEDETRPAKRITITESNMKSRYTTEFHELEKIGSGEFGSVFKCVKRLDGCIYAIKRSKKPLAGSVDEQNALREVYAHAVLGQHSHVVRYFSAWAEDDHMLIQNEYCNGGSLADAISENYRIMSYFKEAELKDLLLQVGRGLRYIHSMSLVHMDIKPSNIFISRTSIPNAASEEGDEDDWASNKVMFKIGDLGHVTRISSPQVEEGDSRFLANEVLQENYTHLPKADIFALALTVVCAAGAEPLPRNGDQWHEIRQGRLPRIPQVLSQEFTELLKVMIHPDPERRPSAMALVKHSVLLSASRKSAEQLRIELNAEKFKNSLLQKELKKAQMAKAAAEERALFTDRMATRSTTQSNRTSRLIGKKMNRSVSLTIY
Sequence of UniProt P32249 (whole entry, looked up): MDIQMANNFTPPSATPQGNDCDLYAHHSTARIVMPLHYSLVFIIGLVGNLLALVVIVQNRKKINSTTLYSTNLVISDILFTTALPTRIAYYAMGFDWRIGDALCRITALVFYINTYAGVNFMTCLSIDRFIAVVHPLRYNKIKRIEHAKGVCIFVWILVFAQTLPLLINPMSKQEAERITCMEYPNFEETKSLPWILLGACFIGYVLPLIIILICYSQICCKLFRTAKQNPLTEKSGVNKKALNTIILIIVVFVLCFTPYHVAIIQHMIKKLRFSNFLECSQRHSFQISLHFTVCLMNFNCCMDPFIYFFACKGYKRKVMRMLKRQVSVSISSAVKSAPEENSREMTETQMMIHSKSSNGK
Sequence of UniProt Q9NS67 (whole entry, looked up): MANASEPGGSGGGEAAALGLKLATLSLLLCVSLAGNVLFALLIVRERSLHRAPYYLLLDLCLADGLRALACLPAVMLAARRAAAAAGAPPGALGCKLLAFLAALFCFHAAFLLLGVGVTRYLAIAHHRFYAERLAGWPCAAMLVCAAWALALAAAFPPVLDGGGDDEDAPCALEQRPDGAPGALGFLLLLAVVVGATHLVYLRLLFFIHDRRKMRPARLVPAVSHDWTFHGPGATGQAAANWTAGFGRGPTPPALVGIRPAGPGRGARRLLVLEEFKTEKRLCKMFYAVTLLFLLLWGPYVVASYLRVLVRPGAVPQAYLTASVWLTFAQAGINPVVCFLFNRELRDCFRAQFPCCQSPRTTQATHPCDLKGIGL
Sequence of UniProt Q9H3Y6 (whole entry, looked up): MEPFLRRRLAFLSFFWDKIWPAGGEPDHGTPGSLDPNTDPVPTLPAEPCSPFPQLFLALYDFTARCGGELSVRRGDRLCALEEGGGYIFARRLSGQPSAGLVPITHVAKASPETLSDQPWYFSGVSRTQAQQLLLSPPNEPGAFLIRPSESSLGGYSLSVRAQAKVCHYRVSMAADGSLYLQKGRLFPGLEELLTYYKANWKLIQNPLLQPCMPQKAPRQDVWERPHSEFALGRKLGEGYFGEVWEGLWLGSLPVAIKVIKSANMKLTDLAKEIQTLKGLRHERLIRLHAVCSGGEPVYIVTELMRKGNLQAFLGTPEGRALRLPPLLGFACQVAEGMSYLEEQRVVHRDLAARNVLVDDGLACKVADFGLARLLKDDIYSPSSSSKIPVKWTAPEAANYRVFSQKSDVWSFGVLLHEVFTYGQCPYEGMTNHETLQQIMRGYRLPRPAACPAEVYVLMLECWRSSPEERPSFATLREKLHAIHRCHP

Block 1 — effect on: enzyme activity; action: inhibitor; tested at: 1 µM
Compound: CC(C)S(=O)(=O)c1ccc2nccc(Nc3ccc4sc(C5CCCC5)nc4c3)c2c1
| target | activity vs control |
| --- | --- |
| TSSK2 (Homo sapiens, UniProt Q96PF2) | 86% |
| STK24 (Homo sapiens, UniProt Q9Y6E0) | 112% |
| CDKL4 (Homo sapiens, UniProt Q5MAI5) | 85% |
| PRKACA (Homo sapiens, UniProt P17612) | 99% |
| CHUK (Homo sapiens, UniProt O15111) | 112% |
| WEE1 (Homo sapiens, UniProt P30291) | 108% |
| TTBK2 (Homo sapiens, UniProt Q6IQ55) | 100% |
| CSNK1E (Homo sapiens, UniProt P49674) | 95% |
| Insulin receptor (INSR, Homo sapiens, UniProt P06213) | 93% |
| PRKCG (Homo sapiens, UniProt P05129) | 100% |

Block 2 — SMILES: CCN(c1nc(N)c(C(=O)N=C(N)N)nc1Cl)C(C)C; effect on: β-arrestin recruitment; action: agonist; method: PRESTO-Tango; tested at: 10 µM; baseline: untreated
| target | fold over basal |
| --- | --- |
| F2RL3 (Homo sapiens, UniProt Q96RI0) | 0.63 fold |
| Adhesion G protein-coupled receptor L4 (ADGRL4, Homo sapiens, UniProt Q9HBW9) | 1 |
| CCR4 (Homo sapiens, UniProt P51679) | 0.99 |
| Probable G-protein coupled receptor 27 (Homo sapiens, UniProt Q9NS67) | 1.93 |
| C5AR2 (Homo sapiens, UniProt Q9P296) | 0.94 |
| MRGPRX1 (Homo sapiens, UniProt Q96LB2) | 1.18 |
| OXGR1 (Homo sapiens, UniProt Q96P68) | 0.91 |
| GPR183 (Homo sapiens, UniProt P32249) | 0.92 |
| HRH1 (Homo sapiens, UniProt P35367) | 0.9 fold |
| HTR2B (Homo sapiens, UniProt P41595) | 0.89 |
| Lysophosphatidic acid receptor 6 (Homo sapiens, UniProt P43657) | 1.44 |
| CRHR1 (Homo sapiens, UniProt P34998) | 0.93 |
| Probable G-protein coupled receptor 63 (GPR63, Homo sapiens, UniProt Q9BZJ6) | 0.73 |
| GPR84 (Homo sapiens, UniProt Q9NQS5) | 1.21 |

Block 3 — SMILES: Cc1ccc(NC2=CC(=O)c3sc(C)nc3C2=O)cc1; effect on: enzyme activity; action: inhibitor; tested at: 0.5 µM; baseline: control
| target | remaining activity [%] |
| --- | --- |
| HIPK4 (Homo sapiens, UniProt Q8NE63) | 93.7 |
| ABL1 (Homo sapiens, UniProt P00519) | 90.8 |
| MAPKAPK3 (Homo sapiens, UniProt Q16644) | 76.5 |
| Cyclin-dependent kinase 4, with cyclin D3 (CDK4, Homo sapiens, UniProt P11802) | 93.7 |
| RPS6KA5 (Homo sapiens, UniProt O75582) | 87.7 |
| DYRK3 (Homo sapiens, UniProt O43781) | 96.2 |
| WNK3 (Homo sapiens, UniProt Q9BYP7) | 102 |
| PHKG1 (Homo sapiens, UniProt Q16816) | 88.7 |
| RPS6KA6 (Homo sapiens, UniProt Q9UK32) | 73.4 |
| PDPK1 (Homo sapiens, UniProt O15530) | 88.7 |
| CAMK2B (Homo sapiens, UniProt Q13554) | 109 |
| Cyclin-dependent kinase 1, with cyclin B (CDK1, Homo sapiens, UniProt P06493) | 69.7 |
| SRMS (Homo sapiens, UniProt Q9H3Y6) | 82.4 |
| Cyclin-dependent kinase 6, with cyclin D3 (CDK6, Homo sapiens, UniProt Q00534) | 99.6 |
| HIPK2 (Homo sapiens, UniProt Q9H2X6) | 98.5 |
| STK17A (Homo sapiens, UniProt Q9UEE5) | 93.7 |
| AXL (Homo sapiens, UniProt P30530) | 97 |
| EPHA4 (Homo sapiens, UniProt P54764) | 86.5 |
| MAP4K4 (Homo sapiens, UniProt O95819) | 84.5 |
| STK16 (Homo sapiens, UniProt O75716) | 91.7 |
| BLK (Homo sapiens, UniProt P51451) | 95.4 |
| EPHB4 (Homo sapiens, UniProt P54760) | 89.7 |
| TSSK2 (Homo sapiens, UniProt Q96PF2) | 98.3 |

Block 4 — effect on: cell-free assay; method: competition with immobilised ligand; tested at: 1 µM
Compound: CN([C@@H]1CCc2c(CC(=O)O)c3ccccc3n2C1)S(=O)(=O)c1ccc(F)cc1
| target | remaining binding [%] |
| --- | --- |
| SNRK (Homo sapiens, UniProt Q9NRH2) | 100 |
| NLK (Homo sapiens, UniProt Q9UBE8) | 100 |
| MYLK (Homo sapiens, UniProt Q15746) | 100 |
| STK3 (Homo sapiens, UniProt Q13188) | 100 |
| CLK1 (Homo sapiens, UniProt P49759) | 100 |
| CDKL1 (Homo sapiens, UniProt Q00532) | 100 |
| Tyrosine-protein kinase ABL1, non-phosphorylated (ABL1, Homo sapiens, UniProt P00519) | 100 |
| PLK2 (Homo sapiens, UniProt Q9NYY3) | 92 |
| FGFR4 (Homo sapiens, UniProt P22455) | 91 |
| EPHA5 (Homo sapiens, UniProt P54756) | 99 |
| MAP2K2 (Homo sapiens, UniProt P36507) | 76 |
| STK38 (Homo sapiens, UniProt Q15208) | 100 |
| TNIK (Homo sapiens, UniProt Q9UKE5) | 79 |
| Tyrosine-protein kinase ABL1, phosphorylated (ABL1, Homo sapiens, UniProt P00519, M351T) | 100 |
| MAP3K14 (Homo sapiens, UniProt Q99558) | 100 |
| KIT (Homo sapiens, UniProt P10721, V559D/V654A) | 100 |
| Ribosomal protein S6 kinase alpha-4, C-terminal kinase domain (RPS6KA4, Homo sapiens, UniProt O75676) | 96 |
| EGFR (Homo sapiens, UniProt P00533, del752-759) | 100 |
| KIT (Homo sapiens, UniProt P10721, D816V) | 100 |
| MET (Homo sapiens, UniProt P08581) | 100 |
| CIT (Homo sapiens, UniProt O14578) | 100 |
| RIPK1 (Homo sapiens, UniProt Q13546) | 100 |
| TNK1 (Homo sapiens, UniProt Q13470) | 99 |
| NTRK2 (Homo sapiens, UniProt Q16620) | 100 |
| KIT (Homo sapiens, UniProt P10721, A829P) | 100 |

For quick reference, copied from above (block 2):
| target | fold over basal |
| --- | --- |
| OXGR1 (Homo sapiens, UniProt Q96P68) | 0.91 |
| GPR183 (Homo sapiens, UniProt P32249) | 0.92 |
| HRH1 (Homo sapiens, UniProt P35367) | 0.9 fold |
| HTR2B (Homo sapiens, UniProt P41595) | 0.89 |
| Lysophosphatidic acid receptor 6 (Homo sapiens, UniProt P43657) | 1.44 |
| CRHR1 (Homo sapiens, UniProt P34998) | 0.93 |
| Probable G-protein coupled receptor 63 (GPR63, Homo sapiens, UniProt Q9BZJ6) | 0.73 |
